Assay results gathered from unrelated publications.

Compound | test | system | conditions | scale | Tmax
Cc1cc(Nc2cc3ncccc3c(N[C@@H]3C[C@H]4CC[C@@H](C3)N4CCC#N)n2)n[nH]1 |  | human, plasma | 1000 mg single dose, median |  | 1.01 h
CC(C)(Sc1ccncc1-c1ccc(C#N)c2ccccc12)C(=O)O |  | human, plasma | oral, 2.5 mg once daily, median, added: febuxostat 0 mg |  | 3.5 h
C[C@H]1[C@@H](O)O[C@@H]2O[C@@]3(C)CC[C@H]4[C@H](C)CC[C@@H]1[C@@]24OO3 |  | human, both sexes, plasma | oral, dose not given, non-fixed combination |  | 1.04 h
CC1(COc2ccc3c(c2)ncn3-c2ccc3cccc(N4CCC(N)CC4)c3n2)COC1 |  | human patients, recurrent/progressive HGG or DIPG, serum | oral, 220 mg/m^2, day 28, median |  | 3 h
O=C(c1cc(Cc2n[nH]c(=O)c3ccccc23)ccc1F)N1CCN(C(=O)C2CC2)CC1 |  | human, female, plasma | oral, 200 mg twice daily, added: abemaciclib |  | 2 h
C=CC(=O)N(C)CCOc1c(N)ncnc1-c1cc(F)cc(NC(=O)c2ccc(C3CC3)cc2F)c1C |  | human, fasted, whole blood | oral, 60 mg single dose, food effect study, median |  | 0.77 h
COC(=O)N[C@@H](C)CNc1nccc(-c2cn(C(C)C)nc2-c2cc(Cl)cc(NS(C)(=O)=O)c2F)n1 |  | human, plasma | oral, 50 mg, single dose alone | median | 1.5 h
CC(F)(F)c1cc(F)ccc1-c1sc2cc(O)ccc2c1Oc1ccc(/C=C/C(=O)O)cc1 |  | human patients, plasma | oral, once daily, range of medians, preliminary |  | 2 to 3 h
CC(C)NC(=O)COc1cccc(-c2nc(Nc3ccc4[nH]ncc4c3)c3ccccc3n2)c1 |  | human male, plasma | oral, 200 mg, day 5, fed, alone, median |  | 2 h
N#CCC1CCN(c2nc(Nc3ccc(N4CCC(O)CC4)cc3)c3c(=O)[nH]ncc3n2)CC1 | LC-MS/MS | human, plasma | oral, 80 mg once daily, day 15, median |  | 3 h
CCS(=O)(=O)Nc1ccc(Oc2ccc(F)cc2F)c(-c2cn(C)c(=O)c3[nH]ccc23)c1 |  | human, plasma | oral, 1.5 mg, cycle 1 day 8, median |  | 2 h
CC(C)(C(=O)NC1C2CC3CC1CC(C(N)=O)(C3)C2)N1CCN(c2ccc(C(F)(F)F)cn2)CC1 (stereo not shown) | measured: metabolite | human, CSF | oral, 50 mg once daily, 5 days, median |  | 3.3 h
CNC(=O)c1ccc(-c2cnc3ncc(Cc4ccc5ncccc5c4)n3n2)cc1F |  | human mild hepatic impairment NCI | oral, 200 mg single dose, median |  | 1.5 h
C#C[C@]1(COP(=O)(O)O)O[C@@H](n2cnc3c(N)nc(F)nc32)C[C@@H]1O | measured: islatravir triphosphate | human, PBMC | oral, 100 mg single dose |  | 6 h
CCn1cc(C(=O)N2CCOCC2)c(=O)c2cc(NC3Cc4ccccc4C3)cnc21 |  | human, fasted, plasma | oral, 600 mg single dose, tablet, median |  | 0.75 h
COc1nnc2ccc(N3CCC(c4ccc(OCCN5CCN(C)C(=O)[C@H]5C)cc4)CC3)nn12 |  | human, plasma | oral, 5 mg once daily, single dose, monotherapy |  | 1.12 h
C=CC(=O)NC1CCN(c2ncc3ncnc(Nc4ccc(Oc5ccc6c(c5)ncn6C)c(C)c4)c3n2)CC1 |  | human, male, plasma | oral, 240 mg single dose, fasted, median |  | 2 h
COc1cc2ncnc(Nc3ccc(F)c(Cl)c3)c2cc1NC(=O)/C=C/CN1CCCCC1 |  | human, plasma | oral, 30 mg single dose |  | 6 h
Cc1cc(C)c(CNC(=O)c2cc(Cl)c3c(c2C)O[C@@](C)([C@H]2CC[C@H](N(C)C)CC2)O3)c(=O)[nH]1 | median | healthy male humans, plasma | oral, 25 mg, day 11, added: itraconazole |  | 3 h
Cc1noc(C)c1-c1cc(C(O)(c2ccccn2)c2ccccn2)c2nc(C3CC3)[nH]c2c1 |  | human male patients, fasted, plasma | oral, 4 mg once daily, cycle 1 day 8 |  | 0.58 h
Cc1ncnc2c1ccn2[C@@H]1C[C@H](Oc2cc(C(F)F)c(F)c3c2CNCC3)[C@@H](O)[C@H]1O |  | human, plasma | 4 mg once daily, multiple dose, median |  | 1.9 h
Cc1cc(C)c(CNC(=O)c2cc(Cl)c3c(c2C)O[C@@](C)([C@H]2CC[C@H](N(C)C)CC2)O3)c(=O)[nH]1 | measured: total radioactivity | human male, whole blood | oral, 200 mg, median |  | 2.75 h
Cc1cn(C(=O)c2c(-c3c(Cl)cc(Cl)cc3Cl)noc2C(C)(C)F)c2cccc(/C=C/C(=O)O)c12 |  | human patients | 250 mg bid, cycle 1 day 1 |  | 3.95 h
C#C[C@]1(CO)O[C@@H](n2cnc3c(N)nc(F)nc32)C[C@@H]1O |  | human, plasma | oral, 15 mg, single dose, median |  | 0.5 h
CC(=O)O.NC(=O)c1cnc(N[C@@H]2CCCC[C@@H]2N)nc1Nc1cccc(-n2nccn2)c1 |  | human, plasma | oral, 66 mg once daily |  | 2.53 h
COc1cc([C@@H]2Oc3cc([C@H]4Oc5cc(O)cc(O)c5C(=O)[C@@H]4O)ccc3O[C@H]2CO)ccc1O |  | OATP1B1/1B3 humanized mice, plasma | oral gavage, 500 mg/kg silymarin, median |  | 0.25 h

Compound | test | system | conditions | scale | Tmax
CC(C)=CCC/C(C)=C/CC/C(C)=C/CC[C@@](C)(O)CCC1=C(C)C(=O)C(C)=C(C)C1=O |  | human, plasma | oral, 400 mg, added: itraconazole 200 mg | baseline: without itraconazole | no effect
C[C@H](Oc1ccc(Br)cc1-c1ccon1)C(=O)O | LC-MS/MS, non-compartmental | human, plasma | 200 mg once daily, day 1, multiple ascending dose, median |  | 3.5 h
COc1cc(C(=O)NC2CCN(C)CC2)c(F)cc1Nc1ncc(C(F)(F)F)c(Oc2cccc3c2C(=O)N(C)C3)n1 |  | human patients, plasma | oral, 200 mg single dose, cycle 1 day 1, median |  | 2.98 h
Cn1ncnc1[C@H]1c2n[nH]c(=O)c3cc(F)cc(c23)N[C@@H]1c1ccc(F)cc1 |  | human patients, plasma | oral, 600 µg/m2 twice daily, day 1, monotherapy, dose level DL4, median |  | 2 h
CC(C)[C@H](N)C(=O)NCCCS(=O)(=O)O | median | human, plasma | oral, 340 mg twice daily days 8-13, once daily day 14, day 14, fed, capsule |  | 1 h
N#Cc1cc(NC(=O)[C@H]2c3ccccc3C(=O)N(CC(F)(F)F)[C@@H]2c2cccnc2)ccc1F |  | human, plasma | oral, 900 mg, median |  | 1.5 h
COc1ccc([C@@H](O)c2cc(-c3ncnc4cc(N5CCOCC5)ccc34)c(F)cc2Cl)nn1 |  | human | oral, 250 mg once daily, single dose, median |  | 1.47 h
Fc1ccc([C@@H]2CCNC[C@H]2COc2ccc3c(c2)OCO3)cc1 |  | human, CYP2D6 normal metabolizers | oral, 20 mg, steady state, geometric mean |  | 4.2 h
Cc1cc(-c2nnc(N)nc2-c2ccc(F)cc2)cc(Cl)n1 |  | human patients, plasma | oral, 150 mg capsule, single dose, median |  | 2 h
N[C@](CO)(CCc1ccc(Sc2cccc(OCc3ccccc3)c2)cc1Cl)COP(=O)(O)O |  | human, fed, blood | 3 mg, median, alone |  | 12 h
Cc1cc(-c2nccc3c2ccn3CC(=O)Nc2ccc(-c3cnccn3)cn2)ccn1 |  | human, plasma | oral, 20 mg single dose, median |  | 1 h
C[C@H](NC(=O)/C(C#N)=C/c1cccc(Br)n1)c1ccccc1 | LC-MS/MS | human, plasma | oral, 2 mg/kg, cycle 1 day 1 |  | 0.5 h
O=C(O)CCC(=O)O.[2H]C([2H])([2H])Oc1cc(C)c2[nH]ccc2c1CN1CC[C@@H](C2CC2)C[C@H]1c1ccc(C(=O)O)cc1 |  | healthy humans, fasted, plasma | oral, 200 mg, single dose |  | 3.5 h
CCOc1c([C@H](C)n2nc(C)c3c(N)ncnc32)cc(Cl)c(F)c1[C@@H]1CNC(=O)C1 |  | human patients, Hodgkin lymphoma, plasma | oral, 30 mg, day 15, monotherapy, median |  | 0.8 h
Cc1cc(/C=C/C#N)cc(C)c1Nc1ccnc(Nc2ccc(C#N)cc2)n1 |  | human, haemodialysis, plasma | oral, dose not given, steady state, median |  | 2.3 h
Cn1nnc2c(C(N)=O)ncn2c1=O |  | human patients, plasma | oral, 40 mg/m2, day 5, dose level DL5, median, added: talazoparib 600 µg/m2 |  | 1 h
COc1ncc(-c2nc3c(n2C(C)C)[C@H](c2ccc(Cl)cc2)N(c2cc(Cl)cn(C)c2=O)C3=O)c(OC)n1 | LC-MS/MS, noncompartmental | human, plasma | oral, 150 mg, C1D8, high-dose, median |  | 2 h
C[C@@H](Nc1cc(F)cc(F)c1)c1cc(C(=O)N(C)C)cc2c(=O)cc(N3CCOCC3)oc12 | measured: M1 metabolite | human | oral, 120 mg, single dose day 1, 2:5 BID regimen |  | 3.65 h
CCCCCCCOc1ccc(CCC(N)(CO)CO)cc1C(F)(F)F.Cl |  | healthy human males, plasma | oral, 0.125 mg, day 1, median |  | 16 h
CC(C)(C#N)c1cc(Cn2cncn2)cc(C(C)(C)C#N)c1 |  | human | 150 mg |  | 1 h
N#CCNC(=O)c1ccc(-c2ccnc(Nc3ccc(N4CCOCC4)cc3)n2)cc1 |  | healthy human volunteers, plasma | oral, 100 mg once daily, day 7, fed, given alone |  | 2.5 h
N#Cc1cccc(-c2ccc3ncc(-c4cc(F)cc(F)c4)c(N4CCC(N)CC4)c3c2)c1O |  | male human, plasma | intravenous, 50 µg, median, first sampling point |  | 0.0333 h
CC(=O)N(C)[C@H]1CCN(C(=O)c2cnc3c(c2)C[C@](C)(c2ccc(F)cc2)N3)C1 |  | human, male, plasma | oral, dose not given, median |  | ~1 h
N#Cc1ccc2c(c1)[C@H]1CCCN(C(=O)c3ccc4[nH]cnc4c3)[C@H]1C2 |  | human, plasma | oral, 240 mg once daily, after first dose, median |  | 1 h
CN(CC#N)C(=O)C[C@H](Nc1nc2ccccc2[nH]1)c1cccc(C(F)(F)F)c1 |  | human | intravenous infusion, 2 mg/kg, 1 mg/mL formulation |  | 0.48 h
CNC(=O)c1cc(Oc2ccc(NC(=O)Nc3ccc(Cl)c(C(F)(F)F)c3)cc2)ccn1 |  | human, plasma | oral, 200 mg daily, median, dose level -4, added: carboplatin AUC 2, gemcitabine 500 mg/m2 |  | 2.3 h

Excerpt of the above:
Compound | test | system | conditions | scale | Tmax
Cc1cn(C(=O)c2c(-c3c(Cl)cc(Cl)cc3Cl)noc2C(C)(C)F)c2cccc(/C=C/C(=O)O)c12 |  | human patients | 250 mg bid, cycle 1 day 1 |  | 3.95 h
C#C[C@]1(CO)O[C@@H](n2cnc3c(N)nc(F)nc32)C[C@@H]1O |  | human, plasma | oral, 15 mg, single dose, median |  | 0.5 h
CC(=O)O.NC(=O)c1cnc(N[C@@H]2CCCC[C@@H]2N)nc1Nc1cccc(-n2nccn2)c1 |  | human, plasma | oral, 66 mg once daily |  | 2.53 h
COc1cc([C@@H]2Oc3cc([C@H]4Oc5cc(O)cc(O)c5C(=O)[C@@H]4O)ccc3O[C@H]2CO)ccc1O |  | OATP1B1/1B3 humanized mice, plasma | oral gavage, 500 mg/kg silymarin, median |  | 0.25 h
CC(C)=CCC/C(C)=C/CC/C(C)=C/CC[C@@](C)(O)CCC1=C(C)C(=O)C(C)=C(C)C1=O |  | human, plasma | oral, 400 mg, added: itraconazole 200 mg | baseline: without itraconazole | no effect
